{"data": "Assay results collected from several papers", "note": "Every numbered part comes from another study and shows a few of its results, in no order. Substitutions count along the parent as printed."}
{"data": "Series 1", "target": "RNA binding protein fox-1 homolog 2, RRM domain, GST-SBP tag (RBFOX2, Homo sapiens, UniProt O43251-10, residues 100-194)", "technique": "RNA Bind-n-Seq", "form": "RNA", "sample": "in vitro", "concentration": "365 nM", "notes": "natural RNA segment, single round, ends assumed", "reference": "no-protein control", "reading": "higher = stronger binding", "all sequences stand within": "GGGAGUUCUACAGUCCGACGAUC … UGGAAUUCUCGGGUGCCAA", "Residues (chain)": "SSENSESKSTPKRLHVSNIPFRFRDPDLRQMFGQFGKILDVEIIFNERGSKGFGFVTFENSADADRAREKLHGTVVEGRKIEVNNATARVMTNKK"}
{"Sequence": "CCGCCCCUCCUCCAUACCCCAGGGAUAAUUUUUCCUUCAAACCUUCCCUUUCCAAGGGACACUGGGUUUGCAGACAGCAAGGCUAUGUGGCAGAGAAGAAAAAGUCCAGC", "RBNS enrichment (R)": 0.367}
{"Sequence": "UGGUUUAUUUUUAGUGCUAUUUUGUUAUAUGAUUGCCAUUGAAAAUAAUAAAAAGAAUGUUGGUUUCAUUCGCCCUUUUUUUUUAAACCUUUUAAAAAAGACAGUAGUGU", "RBNS enrichment (R)": 0.434}
{"Sequence": "UAGGAAGCUUUGCUUACACUCUGGAGCCUUUACACUCUGAAGGAGAACUUCAGGGUUAUUCCAAGUACUUGUGUGACUUGGAAAAGUAGACUUGGGUUGUGGGAACAGUU", "RBNS enrichment (R)": 0.272}
{"Sequence": "GAAAAAAAUUAAGAAACAACAGGCCAAACAUAUUUGCAAGUGGAUUUAAACGACUGGUCCAAAUUUUGCCUUCAGUUACAAGUCUGUGGCUCUCAUUUGCCUCCUCAGAA", "RBNS enrichment (R)": 0.555}
{"Sequence": "UCGUUACUUUCUGGCGAAUUUAACAUAAGCCUUGGGCACCUGUCACAAUUUUCUAAAGAUGGUUUGGGCUUCCUUACCUCCCAGUGUGAAGUGUUUCAAAUGUCUGUCAG", "RBNS enrichment (R)": 0.358}
{"Sequence": "AUGUCAGGAUCCAGCAAAACUACUGCUUUCUUCUCCAAAGACAUGUGGGAGCCUUCAAUCCUCAGUGGCAUGGGAAACAGCUGAGUACUUGCCCCGUGACUUCAGUUUUC", "RBNS enrichment (R)": 1.63}
{"Sequence": "CAUUUUCUGCCCCCCCAAAAUCUGUUGAAAUGAUUCACUGAUGCAAAACAUUCACCCGUAAUAGACUGAGAAUUGAGCCUUAACUUCAGAUUAACUUGUGAGAAUCAGGA", "RBNS enrichment (R)": 0.517}
{"Sequence": "AGUUUACUGAACACCAAGGAAGAAGUGAGACCUCAGUGACUGUUCUCGUGCCAAGAAGCCCUGGGCCAGGGCCAGGUGUUUCCAGAGCCAAGUGCCCAUGUGUGUAUGGG", "RBNS enrichment (R)": 0.492}
{"data": "Series 2", "target": "CCNE2, cyclin fold, Cln2 fusion (human)", "technique": "yeast growth competition, sequencing", "sample": "yeast", "notes": "strong parent motif", "reference": "not given", "reading": "higher = stronger binding", "starting sequence": "E2F1 docking peptide (human); PPVKRRLDFETDH"}
{"Substitution": "V3I", "normalised enrichment score": 3.25}
{"Substitution": "D8A", "normalised enrichment score": 5.57}
{"Substitution": "F9P", "normalised enrichment score": 0.133}
{"Substitution": "D8G", "normalised enrichment score": 3.32}
{"Substitution": "K4E", "normalised enrichment score": 0.636}
{"Substitution": "R5V", "normalised enrichment score": 0.268}
{"Substitution": "L7C", "normalised enrichment score": 0.401}
{"Substitution": "F9R", "normalised enrichment score": 0.323}
{"Substitution": "E10H", "normalised enrichment score": 5.86}
{"Substitution": "P2W", "normalised enrichment score": 3.82}
{"Substitution": "P2T", "normalised enrichment score": 5.52}
{"Substitution": "D12I", "normalised enrichment score": 6.54}
{"Substitution": "D12C", "normalised enrichment score": 6.43}
{"Substitution": "L7V", "normalised enrichment score": 1.04}
{"Substitution": "R5H", "normalised enrichment score": 0.0353}
{"Substitution": "R6W", "normalised enrichment score": 2.67}
{"Substitution": "T11D", "normalised enrichment score": 4.84}
{"Substitution": "K4F", "normalised enrichment score": 1.57}
{"data": "Series 3", "target": "Histone acetyltransferase KAT6A, winged helix 1, GST fusion (KAT6A, Homo sapiens, UniProt Q92794, residues 1-85)", "technique": "protein binding microarray", "form": "double-stranded DNA, one strand shown", "sample": "in vitro", "concentration": "not given", "notes": "8-mer, flanks averaged, mean of 2 arrays, mostly near background", "reference": "not given", "reading": "higher = stronger binding", "Target sequence (chain)": "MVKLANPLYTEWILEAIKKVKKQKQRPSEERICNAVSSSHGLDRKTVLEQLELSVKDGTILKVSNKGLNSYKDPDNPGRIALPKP"}
{"Sequence": "GACGTACC", "E-score": -0.0438}
{"Sequence": "AAACTGCC", "E-score": -0.103}
{"Sequence": "GATAGAGA", "E-score": -0.136}
{"Sequence": "AACCTCAC", "E-score": -0.171}
{"Sequence": "GGGGAATA", "E-score": -0.0898}
{"Sequence": "CCCGCGGA", "E-score": 0.363}
{"Sequence": "AATACTGT", "E-score": -0.134}
{"Sequence": "ACTCGACA", "E-score": -0.01}
{"Sequence": "GAAGAGTC", "E-score": -0.192}
{"Sequence": "AAGTCACT", "E-score": 0.0654}
{"Sequence": "AGCGTTAG", "E-score": -0.086}
{"Sequence": "AATGCACA", "E-score": -0.0947}
{"Sequence": "ACGGTATC", "E-score": 0.148}
{"Sequence": "ATTCCTTG", "E-score": -0.03}
{"Sequence": "GGCCCGAC", "E-score": 0.253}
{"Sequence": "TACAACCA", "E-score": -0.123}
{"data": "Series 4", "target": "FOSB, bZIP domain (human)", "technique": "DHFR protein complementation", "sample": "yeast", "notes": "single substitutions, most at no-binding floor", "reference": "wild-type JUN-FOS pair", "reading": "higher = stronger binding", "starting sequence": "JUN, bZIP domain (human); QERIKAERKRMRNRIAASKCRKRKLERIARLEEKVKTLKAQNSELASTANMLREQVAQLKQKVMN; partner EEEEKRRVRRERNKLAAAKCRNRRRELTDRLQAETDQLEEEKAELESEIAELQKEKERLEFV"}
{"Substitution": "L52H", "binding fitness [natural log]": -1.15}
{"Substitution": "A57G", "binding fitness [natural log]": -0.12}
{"Substitution": "S43R", "binding fitness [natural log]": 0.0653}
{"Substitution": "L45I", "binding fitness [natural log]": -1.08}
{"Substitution": "I28P", "binding fitness [natural log]": -0.297}
{"Substitution": "Q41K", "binding fitness [natural log]": -0.0883}
{"Substitution": "L38C", "binding fitness [natural log]": -1.11}
{"Substitution": "R30T", "binding fitness [natural log]": 0.105}
{"Substitution": "A40D", "binding fitness [natural log]": -0.0932}
{"Substitution": "S43T", "binding fitness [natural log]": 0.0192}
{"Substitution": "E32L", "binding fitness [natural log]": -0.168}
{"Substitution": "L52Y", "binding fitness [natural log]": -0.774}
{"Substitution": "L31E", "binding fitness [natural log]": -0.44}
{"Substitution": "A49T", "binding fitness [natural log]": -0.785}
{"Substitution": "Q55L", "binding fitness [natural log]": -0.241}
{"Substitution": "K39L", "binding fitness [natural log]": -0.57}
{"Substitution": "R30K", "binding fitness [natural log]": -0.179}
{"Substitution": "Q41T", "binding fitness [natural log]": -0.144}
{"note": "Excerpt of the above (series 3):"}
{"Sequence": "AACCTCAC", "E-score": -0.171}
{"Sequence": "GGGGAATA", "E-score": -0.0898}
{"Sequence": "CCCGCGGA", "E-score": 0.363}
{"Sequence": "AATACTGT", "E-score": -0.134}
{"Sequence": "ACTCGACA", "E-score": -0.01}
{"Sequence": "GAAGAGTC", "E-score": -0.192}
{"Sequence": "AAGTCACT", "E-score": 0.0654}
